Measurements of several laboratories.
Values joined by “and” are separate records of one study, mostly repeats; a detail may differ. ± gives the spread as reported.

Molecule = CCOC(=O)c1ncn2c1[C@@H]1CCCN1C(=O)c1cc(OC)ccc1-2; target or system = GABAA receptor; assay = GABA-induced current potentiation, positive modulator, automated patch clamp; system = Jurkat; setting = with: GABA EC3 0.3 µM; quantity = EC50; result = 2500 nM
Molecule = CN[C@@](C)(C[18F])C(=O)O; target or system = A549 tumour model; system = host not given, muscle; setting = 30 min, tumour-bearing; quantity = tracer uptake; result = 1.2 %ID/g
Molecule = COc1cccc2c1C(=O)c1c(O)c3c(c(O)c1C2=O)C[C@@](O)(C(=O)CO)C[C@@H]3O[C@H]1C[C@H](N)[C@H](O)[C@H](C)O1; target or system = calf thymus DNA; assay = terbium luminescence; setting = 24 h; quantity = concentration for maximal DNA damage; result = 4 µM
Molecule = buprenorphine hydrochloride; target or system = UGT; assay = refers to: 4-MU glucuronide; system = human liver microsomes; setting = with: 4-methylumbelliferone 100 µM; quantity = IC50; result = 6320 ± 1390 nM
Molecule = CC(=O)Nc1c(N)nc(SCC(=O)NN)[nH]c1=O; target or system = calf thymus DNA; assay = terbium luminescence; setting = 24 h; quantity = concentration for maximal DNA damage; result = 1 µM
Molecule = CO[C@H]1O[C@H](CO)[C@@H](O)[C@H](O)[C@@H]1O; target or system = Clematis montana lectin; assay = hemagglutination; system = rabbit erythrocytes; setting = with: 8 hemagglutination units; quantity = minimum inhibitory concentration; result = > 160 mM
Molecule = O=c1[nH]c(=O)c2[nH]c(=O)[nH]c2[nH]1; target or system = MftR R63S (Burkholderia thailandensis); setting = concentration not given; quantity = melting temperature; result = 64.1 °C and 48.7 °C
Molecule = Cc1ccc(-c2nc3ccc(C)cn3c2CC(=O)N(C)C)cc1; target or system = GABAA receptor, rat; assay = GABA current potentiation, positive modulator, whole-cell voltage clamp; system = cultured Purkinje cells; setting = with: GABA EC20; quantity = EC50; result = 466 ± 75.9 nM
Molecule = CC(=O)[C@H]1CC[C@H]2[C@@H]3CC[C@H]4C[C@H](O)CC[C@]4(C)[C@H]3CC[C@]12C; target or system = human GABA-A receptor, infant cortex; assay = GABA current potentiation, positive allosteric modulator, two-electrode voltage clamp; system = Xenopus oocytes injected with membranes; setting = with: 10 µM GABA; quantity = EC50; result = 314 nM
Molecule = CN1C(=O)CN=C(c2ccccc2)c2cc(Cl)ccc21; target or system = GABAA receptor, rat; assay = GABA current potentiation, positive modulator, whole-cell voltage clamp; system = cultured Purkinje cells; setting = after 2 h oxygen-glucose deprivation, with: GABA EC20; quantity = EC50; result = 2810 ± 400 nM
Molecule = C[n+]1ccc(-c2ccccc2)cc1; target or system = human MATE1; assay = uptake, substrate; system = CHO stably expressing MATE1; quantity = Kt; result = 7.1 ± 3.3 µM

Some of these lines once more:
Molecule = C[n+]1ccc(-c2ccccc2)cc1; target or system = human MATE1; assay = uptake, substrate; system = CHO stably expressing MATE1; quantity = Kt; result = 7.1 ± 3.3 µM
